Assay results gathered from unrelated publications.
Each line is one published result; not all experiments were run side by side.
Read-out: cell growth or viability

With `O=C(Nc1ccc(Oc2nnc(-c3ccc(Cl)cc3)c3ccccc23)cc1)c1ccccc1` the viability was 96% (HepG2; MTT; 78 nM, 24 h).
`O=C(Nc1ccc(Cl)cc1)Nc1cccc(-c2cn(Cc3cccc(Br)c3)nn2)c1` gave a viability of 96.1% (Huh-7; CCK-8; 50 µM, 48 h).
With `COc1ccc(NC(=O)c2c(Nc3ccccc3)sc(C#N)c2NC(=O)CNc2ccc(Br)cc2)cc1` the viability was 55.3% (HCT-116; SRB; 10 µM, 48 h).
The viability of `Cc1ccc(C(CS(=O)(=O)c2ccccc2)=NNC2=NC(=O)C(=NNc3ccc([N+](=O)[O-])cc3)S2)cc1` is reported as 40.9% (SK-MEL-23; MTT; 100 µM, 48 h).
`CC(=NNC(N)=S)c1ccc(Nc2nnc(-c3ccc(Cl)cc3)c3ccccc23)cc1` gave a viability of 7.36% (HepG2; MTT; 5 µM, 24 h).
`COc1ccc(NC(=O)c2c(Nc3ccccc3)sc(C#N)c2NC(=O)CNc2ccc(OC)c(OC)c2)cc1` gave a viability of 98.1% (HCT-116; SRB; 1 nM, 48 h).
The viability of `CC(=NNC(=O)c1ccccc1Br)c1ccc(Nc2nnc(-c3ccc(Cl)cc3)c3ccccc23)cc1` is reported as 4.16% (HepG2; MTT; 2.5 µM, 24 h).
`CC(C)(C)c1nc(-c2cccc(NS(=O)(=O)c3c(F)cccc3F)c2F)c(-c2ccnc(N)n2)s1` gave a viability of 68.5% (SK-MEL-23; MTT; 0.4 µM, 48 h).
The viability of `COc1ccc(NCC(=O)Nc2c(C#N)sc(Nc3ccccc3)c2C(=O)Nc2ccc(OC)cc2)cc1` is reported as 74.2% (HCT-116; SRB; 0.1 µM, 48 h).
For `Cc1c(Cc2ccccc2)c(=O)oc2c(C)c(OCC(=O)NN=Cc3ccccc3)ccc12`, the viability was 6.21% (MDA-MB-231; MTT; 250 µg/mL).
For `S=C(Nc1ccccc1)Nc1ccc(Oc2nnc(-c3ccc(Cl)cc3)c3ccccc23)cc1`, the viability was 96.8% (HepG2; MTT; 0.625 µM, 24 h).
For `COc1ccc(NC(=O)c2c(Nc3ccccc3)sc(C#N)c2NC(=O)CNc2ccc([N+](=O)[O-])cc2)cc1`, the viability was 56.2% (HCT-116; SRB; 10 µM, 48 h).
For `CC(=NNC(=O)c1ccncc1)c1ccc(Nc2nnc(-c3ccc(Cl)cc3)c3ccccc23)cc1`, the viability was 4.5% (HepG2; MTT; 5 µM, 24 h).
With `CCc1c(C)c2ccc(OCC=Cc3ccccc3)c(C)c2oc1=O` the viability was 99.5% (MDA-MB-231; MTT; 62.5 µg/mL).
The viability of `COc1ccc(NC(=O)c2c(Nc3ccccc3)sc(C(=O)NN=Cc3cc(OC)c(OC)c(OC)c3)c2NC(C)=O)cc1` is reported as 58.2% (HepG2; SRB; 1 µM, 48 h).
`O=C(Nc1ccccc1)Nc1ccc(Oc2nnc(-c3ccc(Cl)cc3)c3ccccc23)cc1` has a viability of 4.83% (HepG2; MTT; 10 µM, 24 h).
With `CNC(=O)c1cc(Oc2ccc(NC(=O)Nc3ccc(Cl)c(C(F)(F)F)c3)cc2)ccn1` the viability was 55.9% (MDA-MB-231; MTT; 6.25 µM, 24 h).
`COc1ccc(NC(=O)NCc2cn(Cc3ccc(C)cc3)nn2)cc1` gave a viability of 97.3% (Huh-7; CCK-8; 50 µM, 48 h).
`Cc1c(Cc2ccccc2)c(=O)oc2c(C)c(OCC(=O)NN=Cc3ccco3)ccc12` has a viability of 9.88% (MDA-MB-231; MTT; 62.5 µg/mL).
The viability of `COc1ccc(NC(=O)c2c(Nc3ccccc3)sc(C#N)c2NC(=O)CNc2ccccc2[N+](=O)[O-])cc1` is reported as 102% (HCT-116; SRB; 1 nM, 48 h).

For quick reference, copied from above:
With `CCc1c(C)c2ccc(OCC=Cc3ccccc3)c(C)c2oc1=O` the viability was 99.5% (MDA-MB-231; MTT; 62.5 µg/mL).
The viability of `COc1ccc(NC(=O)c2c(Nc3ccccc3)sc(C(=O)NN=Cc3cc(OC)c(OC)c(OC)c3)c2NC(C)=O)cc1` is reported as 58.2% (HepG2; SRB; 1 µM, 48 h).
`O=C(Nc1ccccc1)Nc1ccc(Oc2nnc(-c3ccc(Cl)cc3)c3ccccc23)cc1` has a viability of 4.83% (HepG2; MTT; 10 µM, 24 h).
